# Measured values from different studies.
# Parts stem from different laboratories: compare values within a part only.

# Series 1
# Target: Sal-like protein 4, full length isoform B (SALL4, Homo sapiens, UniProt Q9UJQ4-2, residues 1-616)
# Method: universal PBM
# Molecule type: double-stranded DNA, one strand shown
# Medium: in vitro
# Concentration: not given
# Setting: 8-mer, flanks averaged, mean of replicates
# Direction: higher = stronger binding
# Construct (chain): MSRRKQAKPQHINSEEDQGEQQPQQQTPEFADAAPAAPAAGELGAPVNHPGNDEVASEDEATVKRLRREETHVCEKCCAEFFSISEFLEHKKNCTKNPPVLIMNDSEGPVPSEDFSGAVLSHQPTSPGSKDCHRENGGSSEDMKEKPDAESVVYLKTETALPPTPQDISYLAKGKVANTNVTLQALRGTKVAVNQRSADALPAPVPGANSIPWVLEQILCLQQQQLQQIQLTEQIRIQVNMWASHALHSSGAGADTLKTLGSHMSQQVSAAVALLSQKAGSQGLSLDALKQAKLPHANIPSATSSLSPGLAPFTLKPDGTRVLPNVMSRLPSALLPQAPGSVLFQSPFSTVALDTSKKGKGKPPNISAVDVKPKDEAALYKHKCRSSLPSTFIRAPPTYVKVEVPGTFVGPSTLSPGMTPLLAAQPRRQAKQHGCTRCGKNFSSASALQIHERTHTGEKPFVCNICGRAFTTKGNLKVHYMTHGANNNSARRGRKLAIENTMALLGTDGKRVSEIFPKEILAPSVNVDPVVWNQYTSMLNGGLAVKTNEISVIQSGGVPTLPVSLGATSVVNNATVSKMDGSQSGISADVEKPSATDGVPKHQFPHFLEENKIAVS
Strand,E-score
CGAGAATC,-0.0789
AATGAGGC,-0.133
CGCGCAGC,-0.369
AGACCCAC,-0.205

# Series 2
# Target: Histone acetyltransferase KAT6A, both winged helices, GST fusion (KAT6A, Homo sapiens, UniProt Q92794, residues 1-181)
# Method: protein binding microarray
# Molecule type: double-stranded DNA, one strand shown
# Medium: in vitro
# Concentration: not given
# Setting: 8-mer, flanks averaged, mean of 2 arrays, mostly near background
# Relative to: not given
# Direction: higher = stronger binding
# Target sequence (chain): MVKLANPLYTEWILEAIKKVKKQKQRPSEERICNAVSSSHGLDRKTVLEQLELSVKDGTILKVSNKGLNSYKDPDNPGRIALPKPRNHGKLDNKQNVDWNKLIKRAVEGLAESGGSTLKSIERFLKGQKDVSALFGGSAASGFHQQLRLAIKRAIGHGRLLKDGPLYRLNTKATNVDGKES
Strand,E-score
GACACTAC,-0.0512
GCTATGGA,-0.117
CAATTTCG,-0.0216
AGGAGGCC,-0.197
CCCCGTGA,0.0414

# Series 3
# Target: RNA binding protein fox-1 homolog 2, RRM domain, GST-SBP tag (RBFOX2, Homo sapiens, UniProt O43251-10, residues 100-194)
# Method: RNA Bind-n-Seq
# Molecule type: RNA
# Medium: in vitro
# Concentration: 365 nM
# Setting: natural RNA segment, single round, ends assumed
# Relative to: no-protein control
# Direction: higher = stronger binding
# Construct (chain): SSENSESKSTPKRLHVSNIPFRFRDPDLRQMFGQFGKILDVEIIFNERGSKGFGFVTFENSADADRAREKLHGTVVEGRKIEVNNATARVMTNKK
Strand,RBNS enrichment (R)
GGGAGUUCUACAGUCCGACGAUCAAACACUUCUAGAGCUUUGUGGUCCAAACUCUGGCUCUCCCGUCUGCAAAACAGGAGCCAGCCUGGGCUCUGUGCCUACCUCAAGGGGAGCUGGGGGUUGGGGGGACUGAUGGAAUUCUCGGGUGCCAA,0.323
GGGAGUUCUACAGUCCGACGAUCUCUGUGGUCAAAUUCAGACUACAGGAGGUCUUUUUGAAUCAUUAUAGUUAGAAGAAGAAUCCAGUUUCUGCCUGUGAACUUAUUUGACUUUAGAUUGUCUCAUCUUGUGAUGGAAUUCUCGGGUGCCAA,0.481
GGGAGUUCUACAGUCCGACGAUCGUAUCUGAUGUUCAUUUAUUCCCAUGUUCUUGUGUGUCACAGUUCAGCCAGUUUUGGUUUAUGCCUAGAGCUACUUCAAGGAACUAGACUAAUUAGCUAUAUAGGCCCAGUGGAAUUCUCGGGUGCCAA,0.373

# Further values, each from its own experiment
Substance,target,test,test system,setting,scale,quantity,value
"PhoQ, residues 284 288 289 292 302 303 SMYGEC","PhoP, residues 12 14 15 18 19 IFFTR (Escherichia coli, UniProt P23836)","Sort-seq, measured: YFP reporter",E. coli,"PhoQ-PhoP variant library, together with: 10 µM Mg2+","relative to: high Mg2+ state, higher = stronger signaling",fold induction,13.2

# For quick reference, copied from above (series 3):
Strand,RBNS enrichment (R)
GGGAGUUCUACAGUCCGACGAUCGUAUCUGAUGUUCAUUUAUUCCCAUGUUCUUGUGUGUCACAGUUCAGCCAGUUUUGGUUUAUGCCUAGAGCUACUUCAAGGAACUAGACUAAUUAGCUAUAUAGGCCCAGUGGAAUUCUCGGGUGCCAA,0.373
GGGAGUUCUACAGUCCGACGAUCAAACACUUCUAGAGCUUUGUGGUCCAAACUCUGGCUCUCCCGUCUGCAAAACAGGAGCCAGCCUGGGCUCUGUGCCUACCUCAAGGGGAGCUGGGGGUUGGGGGGACUGAUGGAAUUCUCGGGUGCCAA,0.323
